Assay results from different studies.
Parts stem from different laboratories: compare values within a part only.
Sequence of UniProt O95747 (whole entry, looked up): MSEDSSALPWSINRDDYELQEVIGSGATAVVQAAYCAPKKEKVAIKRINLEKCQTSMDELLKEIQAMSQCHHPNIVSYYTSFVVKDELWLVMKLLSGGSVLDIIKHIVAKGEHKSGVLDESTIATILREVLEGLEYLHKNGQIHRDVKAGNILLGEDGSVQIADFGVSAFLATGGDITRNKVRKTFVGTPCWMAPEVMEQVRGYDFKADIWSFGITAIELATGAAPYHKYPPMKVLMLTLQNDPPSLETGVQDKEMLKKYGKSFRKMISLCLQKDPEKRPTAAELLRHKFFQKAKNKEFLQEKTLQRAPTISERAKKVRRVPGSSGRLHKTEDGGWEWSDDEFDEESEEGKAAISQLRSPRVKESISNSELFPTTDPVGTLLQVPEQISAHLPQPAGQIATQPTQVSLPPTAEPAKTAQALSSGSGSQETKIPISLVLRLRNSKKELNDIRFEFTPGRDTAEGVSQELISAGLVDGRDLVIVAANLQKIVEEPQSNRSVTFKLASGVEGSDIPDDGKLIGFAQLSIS
Sequence of UniProt P57058 (whole entry, looked up): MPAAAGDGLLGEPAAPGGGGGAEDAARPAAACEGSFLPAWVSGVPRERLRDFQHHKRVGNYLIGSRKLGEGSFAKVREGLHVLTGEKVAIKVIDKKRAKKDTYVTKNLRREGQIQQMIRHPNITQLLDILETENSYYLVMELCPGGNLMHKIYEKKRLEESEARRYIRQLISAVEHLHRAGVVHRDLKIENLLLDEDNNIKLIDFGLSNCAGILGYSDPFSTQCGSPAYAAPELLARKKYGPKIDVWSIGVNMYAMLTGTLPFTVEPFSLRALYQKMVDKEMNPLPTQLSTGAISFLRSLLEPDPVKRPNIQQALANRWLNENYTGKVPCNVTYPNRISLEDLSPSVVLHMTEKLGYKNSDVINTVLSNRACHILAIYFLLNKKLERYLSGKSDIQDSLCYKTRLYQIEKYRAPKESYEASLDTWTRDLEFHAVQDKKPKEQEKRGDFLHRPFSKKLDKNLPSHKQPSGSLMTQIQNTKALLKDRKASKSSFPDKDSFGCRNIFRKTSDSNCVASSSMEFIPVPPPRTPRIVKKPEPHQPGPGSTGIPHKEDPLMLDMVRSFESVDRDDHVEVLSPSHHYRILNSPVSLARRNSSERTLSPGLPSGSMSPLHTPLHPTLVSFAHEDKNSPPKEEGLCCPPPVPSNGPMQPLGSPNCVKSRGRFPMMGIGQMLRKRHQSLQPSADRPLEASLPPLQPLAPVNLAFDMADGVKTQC
Sequence of UniProt P22607 (whole entry, unmodified, looked up): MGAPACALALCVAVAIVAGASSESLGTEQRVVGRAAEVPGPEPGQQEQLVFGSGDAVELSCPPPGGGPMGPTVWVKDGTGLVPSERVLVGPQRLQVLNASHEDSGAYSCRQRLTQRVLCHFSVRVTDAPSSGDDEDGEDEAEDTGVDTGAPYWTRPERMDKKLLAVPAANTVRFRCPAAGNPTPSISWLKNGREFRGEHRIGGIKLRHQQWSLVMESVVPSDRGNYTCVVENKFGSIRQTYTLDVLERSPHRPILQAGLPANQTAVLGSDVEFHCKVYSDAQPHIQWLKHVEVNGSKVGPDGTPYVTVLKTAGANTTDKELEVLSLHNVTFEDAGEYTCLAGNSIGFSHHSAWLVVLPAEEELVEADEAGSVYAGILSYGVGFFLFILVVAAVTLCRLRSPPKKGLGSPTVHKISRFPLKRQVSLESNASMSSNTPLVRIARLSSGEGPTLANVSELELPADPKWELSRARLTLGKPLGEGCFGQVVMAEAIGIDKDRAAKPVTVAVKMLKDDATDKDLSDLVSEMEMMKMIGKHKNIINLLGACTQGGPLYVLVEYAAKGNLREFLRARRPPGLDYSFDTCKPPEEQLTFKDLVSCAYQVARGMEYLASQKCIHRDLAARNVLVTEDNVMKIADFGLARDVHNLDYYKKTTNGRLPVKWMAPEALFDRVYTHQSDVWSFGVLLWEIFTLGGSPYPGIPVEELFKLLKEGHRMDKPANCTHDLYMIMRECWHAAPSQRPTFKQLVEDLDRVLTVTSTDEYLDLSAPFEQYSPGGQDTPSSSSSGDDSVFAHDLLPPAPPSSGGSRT
Sequence of UniProt O14920 (whole entry, looked up): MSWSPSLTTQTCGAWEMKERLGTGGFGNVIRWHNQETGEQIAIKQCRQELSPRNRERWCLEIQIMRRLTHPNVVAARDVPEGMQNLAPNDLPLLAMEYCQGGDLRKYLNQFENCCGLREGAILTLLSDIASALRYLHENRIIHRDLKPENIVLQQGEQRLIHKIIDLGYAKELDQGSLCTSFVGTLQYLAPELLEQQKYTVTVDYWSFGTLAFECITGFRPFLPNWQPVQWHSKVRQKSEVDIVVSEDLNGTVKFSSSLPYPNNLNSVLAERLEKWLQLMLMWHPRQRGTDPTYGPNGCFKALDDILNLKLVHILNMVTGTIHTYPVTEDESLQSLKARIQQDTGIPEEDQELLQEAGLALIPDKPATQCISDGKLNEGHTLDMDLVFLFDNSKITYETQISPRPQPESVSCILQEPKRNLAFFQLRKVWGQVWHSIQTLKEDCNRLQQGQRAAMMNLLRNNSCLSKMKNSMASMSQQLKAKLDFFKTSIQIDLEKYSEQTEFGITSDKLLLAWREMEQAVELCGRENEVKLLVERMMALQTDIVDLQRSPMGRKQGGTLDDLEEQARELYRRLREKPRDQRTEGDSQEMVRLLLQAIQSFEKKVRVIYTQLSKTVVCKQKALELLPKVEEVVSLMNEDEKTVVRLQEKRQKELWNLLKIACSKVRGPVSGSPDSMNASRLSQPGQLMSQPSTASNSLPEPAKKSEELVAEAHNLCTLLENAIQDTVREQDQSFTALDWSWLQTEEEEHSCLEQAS
Sequence of UniProt P54646 (whole entry, looked up): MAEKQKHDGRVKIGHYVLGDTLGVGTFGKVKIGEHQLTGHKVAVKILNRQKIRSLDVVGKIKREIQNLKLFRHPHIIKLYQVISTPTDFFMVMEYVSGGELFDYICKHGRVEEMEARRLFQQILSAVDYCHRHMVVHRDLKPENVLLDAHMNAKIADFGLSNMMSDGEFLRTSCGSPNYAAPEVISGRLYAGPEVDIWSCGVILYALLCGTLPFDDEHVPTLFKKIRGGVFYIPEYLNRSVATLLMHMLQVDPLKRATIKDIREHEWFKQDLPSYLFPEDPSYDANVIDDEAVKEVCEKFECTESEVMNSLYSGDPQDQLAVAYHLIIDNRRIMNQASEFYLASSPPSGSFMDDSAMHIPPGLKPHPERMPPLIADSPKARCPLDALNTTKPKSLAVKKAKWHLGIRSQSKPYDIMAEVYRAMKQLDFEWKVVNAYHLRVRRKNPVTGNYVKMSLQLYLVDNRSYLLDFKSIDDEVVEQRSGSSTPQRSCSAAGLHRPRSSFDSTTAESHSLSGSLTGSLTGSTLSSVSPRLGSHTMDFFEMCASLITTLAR
Sequence of UniProt P49336 (whole entry, looked up): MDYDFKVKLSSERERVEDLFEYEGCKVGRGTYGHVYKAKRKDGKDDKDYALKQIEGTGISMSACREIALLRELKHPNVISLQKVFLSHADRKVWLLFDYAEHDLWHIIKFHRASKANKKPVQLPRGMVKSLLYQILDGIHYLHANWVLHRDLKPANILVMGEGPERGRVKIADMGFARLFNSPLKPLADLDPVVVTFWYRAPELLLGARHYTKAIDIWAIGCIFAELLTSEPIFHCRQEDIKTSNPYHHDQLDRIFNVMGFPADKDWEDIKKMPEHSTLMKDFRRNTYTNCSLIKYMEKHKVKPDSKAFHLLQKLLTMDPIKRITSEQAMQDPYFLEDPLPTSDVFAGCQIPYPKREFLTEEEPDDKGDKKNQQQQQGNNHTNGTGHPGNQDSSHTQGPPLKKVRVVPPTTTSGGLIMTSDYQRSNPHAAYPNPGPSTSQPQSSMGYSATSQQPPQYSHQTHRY
Sequence of UniProt P51617 (whole entry, looked up): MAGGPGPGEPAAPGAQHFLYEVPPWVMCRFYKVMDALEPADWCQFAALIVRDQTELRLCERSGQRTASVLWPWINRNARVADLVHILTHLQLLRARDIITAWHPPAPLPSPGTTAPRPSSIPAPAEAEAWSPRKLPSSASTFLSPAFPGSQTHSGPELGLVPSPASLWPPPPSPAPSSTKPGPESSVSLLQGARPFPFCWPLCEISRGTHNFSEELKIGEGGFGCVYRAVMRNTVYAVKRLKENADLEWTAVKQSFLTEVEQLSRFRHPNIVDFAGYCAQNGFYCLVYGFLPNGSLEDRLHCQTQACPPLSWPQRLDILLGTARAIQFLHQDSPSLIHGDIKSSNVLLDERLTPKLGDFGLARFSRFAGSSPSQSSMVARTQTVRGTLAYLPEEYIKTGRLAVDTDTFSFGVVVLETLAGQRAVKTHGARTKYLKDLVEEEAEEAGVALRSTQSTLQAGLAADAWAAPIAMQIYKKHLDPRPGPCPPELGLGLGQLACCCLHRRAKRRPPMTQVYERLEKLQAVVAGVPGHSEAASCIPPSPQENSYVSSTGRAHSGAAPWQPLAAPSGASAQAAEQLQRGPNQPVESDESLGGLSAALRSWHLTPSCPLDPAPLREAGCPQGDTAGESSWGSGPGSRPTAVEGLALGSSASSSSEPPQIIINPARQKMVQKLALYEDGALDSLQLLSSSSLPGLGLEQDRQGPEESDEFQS
Sequence of UniProt Q96PN8 (whole entry, looked up): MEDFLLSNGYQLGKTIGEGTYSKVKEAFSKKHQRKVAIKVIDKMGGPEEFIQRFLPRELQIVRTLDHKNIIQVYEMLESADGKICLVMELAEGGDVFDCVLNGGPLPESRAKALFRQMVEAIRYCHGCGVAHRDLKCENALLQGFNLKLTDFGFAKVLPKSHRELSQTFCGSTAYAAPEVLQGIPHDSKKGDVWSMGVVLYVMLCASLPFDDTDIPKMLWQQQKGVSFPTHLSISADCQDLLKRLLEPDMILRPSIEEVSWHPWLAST

Set 1
Cell line: HaCaT
Concentration: 100 µM
Time: 36 h
Measurement: viability
C[N+]1(C)CCCC(OC(=O)C(O)(c2ccccc2)c2ccccc2)C1 (stereo not drawn): 91.2%
CN1CCOC(c2ccccc2)c2ccccc2C1 (stereo not drawn): 76.6%
CCN(CC)CCCC(C)Nc1ccnc2cc(Cl)ccc12 (stereo not drawn): 4.68%
C#C[C@]1(O)CC[C@H]2[C@@H]3CCc4cc(OC)ccc4[C@H]3CC[C@@]21C: 25.1%
COc1ccccc1OCC(O)COC(N)=O (stereo not drawn): 98.3%
CC1(C)O[C@@H]2C[C@H]3[C@@H]4CCC5=CC(=O)CC[C@]5(C)[C@@]4(F)[C@@H](O)C[C@]3(C)[C@]2(C(=O)CCl)O1: 76.8%
CC(C)(C(=O)c1cccnc1)c1cccnc1: 77.4%
CC(=O)NS(=O)(=O)c1ccc(NC(=O)c2ccccc2C(=O)O)cc1: 75.3%
CCCCc1oc2ccc(NS(C)(=O)=O)cc2c1C(=O)c1ccc(OCCCN(CCCC)CCCC)cc1: 6.27%
Cn1cnc([N+](=O)[O-])c1Sc1ncnc2nc[nH]c12: 48%
COc1ccc2cc(CCC(C)=O)ccc2c1: 70.9%
CC(=O)Oc1cc(C(C)C)c(OCCN(C)C)cc1C: 87.5%
c1ccc2c(CC3=NCCN3)cccc2c1: 33.4%
COc1ccnc(C[S+]([O-])c2nc3cc(-n4cccc4)ccc3[nH]2)c1C (stereo not drawn): 13.7%

Set 2
SMILES: N#Cc1ccc(Nc2ccc3[nH]c(=O)[nH]c3c2)c(Cl)c1
Technique: competition with immobilised ligand
Concentration: 1 µM
Measurement: remaining binding
AKT3 (Homo sapiens, UniProt Q9Y243); cell-free assay: 69%
TBK1 (Homo sapiens, UniProt Q9UHD2); cell-free assay: 100%
RET (Homo sapiens, UniProt P07949); cell-free assay: 97%
MST1R (Homo sapiens, UniProt Q04912); cell-free assay: 100%
PRKAA2 (Homo sapiens, UniProt P54646); cell-free assay: 81%
CLK3 (Homo sapiens, UniProt P49761); cell-free assay: 96%
Tyrosine-protein kinase ABL1, phosphorylated (ABL1, Homo sapiens, UniProt P00519, E255K); binding: 92%
MAP3K2 (Homo sapiens, UniProt Q9Y2U5); cell-free assay: 100%
MAPK14 (Homo sapiens, UniProt Q16539); cell-free assay: 93%
CAMKK1 (Homo sapiens, UniProt Q8N5S9); cell-free assay: 100%
IRAK1 (Homo sapiens, UniProt P51617); cell-free assay: 100%
PAK6 (Homo sapiens, UniProt Q9NQU5); cell-free assay: 85%
TSSK3 (Homo sapiens, UniProt Q96PN8); cell-free assay: 100%
WNK2 (Homo sapiens, UniProt Q9Y3S1); cell-free assay: 100%
HUNK (Homo sapiens, UniProt P57058); cell-free assay: 98%
CDK8 (Homo sapiens, UniProt P49336); cell-free assay: 100%
NTRK1 (Homo sapiens, UniProt P04629); cell-free assay: 93%
TAOK2 (Homo sapiens, UniProt Q9UL54); cell-free assay: 100%
PDPK1 (Homo sapiens, UniProt O15530); cell-free assay: 97%
MARK3 (Homo sapiens, UniProt P27448); cell-free assay: 100%
NUAK2 (Homo sapiens, UniProt Q9H093); cell-free assay: 100%
FGFR3 (Homo sapiens, UniProt P22607, G697C); cell-free assay: 93%
OXSR1 (Homo sapiens, UniProt O95747); cell-free assay: 75%
NIM1K (Homo sapiens, UniProt Q8IY84); cell-free assay: 100%
MAST1 (Homo sapiens, UniProt Q9Y2H9); cell-free assay: 100%

Set 3
SMILES: Nc1nc(Nc2ccc(S(N)(=O)=O)cc2)nn1C(=O)c1c(F)cccc1F
Effect on: enzyme activity
Mode: inhibitor
Concentration: 0.5 µM
Reference: control
Measurement: remaining activity
STK11 (Homo sapiens, UniProt Q15831): 85.8%
PRKACA (Homo sapiens, UniProt P17612): 98.8%
CHEK2 (Homo sapiens, UniProt O96017): 63.6%
PRKCA (Homo sapiens, UniProt P17252): 55.7%
DAPK2 (Homo sapiens, UniProt Q9UIK4): 107%
Tyrosine-protein kinase Lyn, isoform B (LYN, Homo sapiens, UniProt P07948): 103%
CAMK2D (Homo sapiens, UniProt Q13557): 94.6%
STK39 (Homo sapiens, UniProt Q9UEW8): 89.5%
CAMKK2 (Homo sapiens, UniProt Q96RR4): 61.5%
MAP3K3 (Homo sapiens, UniProt Q99759): 27.5%
GRK3 (Homo sapiens, UniProt P35626): 87.2%
MAPK9 (Homo sapiens, UniProt P45984): 93.7%
Cyclin-dependent kinase 4, with cyclin D1 (CDK4, Homo sapiens, UniProt P11802): 20%
OXSR1 (Homo sapiens, UniProt O95747): 88.8%
TGFBR2 (Homo sapiens, UniProt P37173): 98.5%
Protein kinase C beta type, isoform beta-I (PRKCB, Homo sapiens, UniProt P05771): 88.2%
TGFBR1 (Homo sapiens, UniProt P36897): 104%
IKBKB (Homo sapiens, UniProt O14920): 105%

Set 4
Host: mouse
Medium: microsomes or S9
Concentration: 2 µM
Time: 0.5 h
Measurement: remaining compound
O=C(O)COc1ccc(C#Cc2ccc(C(=O)NCc3ccccc3)cc2)cc1: 34.8%
CCOc1ccccc1NC(=O)NC1(C(=O)O)CCCCC1: 78.1%
CC(=O)N1N=C(c2ccc(C)cc2)OC1c1ccc(C(C)C)cc1 (stereo not drawn): 6.14%
CCOc1ccc(CCNCc2c(C(=O)O)c(C)n(-c3ccccc3)c2C)cc1OCC: 18.2%
O=C(NC(c1ccccc1)c1cccc2ccccc12)c1nc(=O)[nH][nH]1 (stereo not drawn): 69.7%
O=C(COc1ccccc1)NCCn1cc(-c2ccncc2)c(-c2ccccc2F)n1: 1.48%
Cn1nc2n(c1=O)CCC(NC(=O)CCC1CCCCC1)CC2 (stereo not drawn): 74.6%
CC(C)n1nc(-c2ccc3nc(N)sc3c2)c2c(N)ncnc21: 80.2%
O=C(NCc1ccncc1)c1cc(-c2ccc(Br)s2)n[nH]1: 50.6%
